Measurements pooled from the literature.
Numbered parts are unrelated; each lists some results of a single study.

Sample 1 — method: universal PBM; molecule type: double-stranded DNA, one strand shown; matrix: in vitro; tested at: 600 nM; reading: higher = stronger binding
Target: Sal-like protein 4, full length isoform A (SALL4, Homo sapiens, UniProt Q9UJQ4, residues 1-1053)
Sequence of UniProt Q9UJQ4 (whole entry, looked up): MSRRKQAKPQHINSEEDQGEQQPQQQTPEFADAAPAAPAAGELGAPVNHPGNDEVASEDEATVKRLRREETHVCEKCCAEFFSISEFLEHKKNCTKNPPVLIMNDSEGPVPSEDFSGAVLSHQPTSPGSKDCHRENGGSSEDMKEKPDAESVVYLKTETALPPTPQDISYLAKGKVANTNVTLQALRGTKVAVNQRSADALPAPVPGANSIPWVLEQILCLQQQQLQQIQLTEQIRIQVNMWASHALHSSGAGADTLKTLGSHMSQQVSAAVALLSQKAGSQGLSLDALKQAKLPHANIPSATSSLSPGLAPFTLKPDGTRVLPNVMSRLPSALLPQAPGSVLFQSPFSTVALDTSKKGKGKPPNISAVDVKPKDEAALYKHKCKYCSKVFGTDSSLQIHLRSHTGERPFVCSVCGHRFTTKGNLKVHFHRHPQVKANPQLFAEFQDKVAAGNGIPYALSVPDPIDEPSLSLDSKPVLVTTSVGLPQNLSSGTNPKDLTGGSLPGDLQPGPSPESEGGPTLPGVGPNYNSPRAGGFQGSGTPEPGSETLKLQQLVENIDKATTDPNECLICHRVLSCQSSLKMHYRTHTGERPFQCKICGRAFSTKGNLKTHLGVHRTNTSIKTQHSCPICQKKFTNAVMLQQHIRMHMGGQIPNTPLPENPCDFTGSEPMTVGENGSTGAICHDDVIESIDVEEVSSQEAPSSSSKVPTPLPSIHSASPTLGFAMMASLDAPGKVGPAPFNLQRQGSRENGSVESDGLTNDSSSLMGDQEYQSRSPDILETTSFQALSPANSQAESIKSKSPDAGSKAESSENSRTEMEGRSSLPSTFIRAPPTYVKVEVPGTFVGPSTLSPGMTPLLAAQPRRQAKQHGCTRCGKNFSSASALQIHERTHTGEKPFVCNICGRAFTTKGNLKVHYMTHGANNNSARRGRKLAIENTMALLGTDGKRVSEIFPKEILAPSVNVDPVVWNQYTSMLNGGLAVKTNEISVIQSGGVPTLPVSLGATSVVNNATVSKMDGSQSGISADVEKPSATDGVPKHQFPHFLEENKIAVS
Setting: 8-mer, flanks averaged, mean of replicates
`AGTGCACC` has an E-score of -0.0748.
`GTAAGGCA` gave an E-score of 0.014.
`CCGTCAAC` has an E-score of -0.102.
For `CAGGGAGC`, the E-score was -0.247.
The E-score of `GCGATGAA` is reported as 0.017.
The E-score of `AATCGGTG` is reported as -0.0713.
For `GAAGAGCA`, the E-score was -0.0305.
The E-score of `CTTCTGTA` is reported as 0.102.
For `ATCCCGAG`, the E-score was -0.202.
`CGGCGCGA` gave an E-score of -0.0702.
`AACATTTC` gave an E-score of 0.22.
`CCCTCCAA` gave an E-score of -0.239.
For `AGGATCAG`, the E-score was -0.174.
`ATACCCTG` has an E-score of -0.0807.
For `CAAACCGA`, the E-score was -0.113.
For `ATTCTTGG`, the E-score was 0.102.
`CACGAGCA` gave an E-score of -0.0615.
`ACGGAAAG` has an E-score of 0.0168.
For `ATTTTACC`, the E-score was 0.297.
The E-score of `ACGACCGG` is reported as -0.293.
The E-score of `AGTGGAGA` is reported as -0.0255.

Sample 2 — method: RNA Bind-n-Seq; molecule type: RNA; matrix: in vitro; tested at: 365 nM; baseline: no-protein control; reading: higher = stronger binding
Target: RNA binding protein fox-1 homolog 2, RRM domain, GST-SBP tag (RBFOX2, Homo sapiens, UniProt O43251-10, residues 100-194)
Setting: natural RNA segment, single round, ends assumed
Shared flanks, not repeated: GGGAGUUCUACAGUCCGACGAUC … UGGAAUUCUCGGGUGCCAA
Construct (chain): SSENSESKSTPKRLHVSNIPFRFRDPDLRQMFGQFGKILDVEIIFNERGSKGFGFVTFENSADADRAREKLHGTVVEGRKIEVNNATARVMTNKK
`GAUUCCACUCAGAACCUCUUUCUAAAGUUUUUGCCUGAUGUGUCUUCACUGGAUUUUGGGGUUCCCAGCACCCCAUGUAGAUUUGGGGGUUUCUUUUUGUCUCCCCCACU`: “RBNS enrichment (R)” 0.388.
Under “RBNS enrichment (R)”, `CCCAGGGCAUCUGCCAACUCCAGCAUCAACUCAACUCCCACCGCAUACCUGGUGCUGUCCCUGGGCUCUGCUGGUCAUGUGAGGCAGCCUCGGAGAAGGAAGCAGAGGGU` is recorded as 1.14.
`CAGAAGAGUAGAACAUACUGGCAGAGUUUUACAUUAGGAUAUUGCUGUCUUUUCUACGAUAGAGAAUCUUUAUUUGUAAGGAAUGUUUCAGGCCUAGACAUACAUGAAAC` — result for “RBNS enrichment (R)”: 0.358.
Under “RBNS enrichment (R)”, `GUGUCAAGCACAUUAUAGUGUUUGCCCUCACAGGAAAAAAAAAAAAGUCCCCUGUUCUGAAAACAGGCCAGUGGUGGGCCGCCACUCUGCUGCUAUCAGCUCUGUUAGGU` is recorded as 0.214.
For `AUGGAACUCUCCAGUGUUCCUAUAAAAUAGUAGUUCCAGCUAAAUAAACCUACUGUACUCAGUGCUUCUCCAAGAAUACUACAACGGAUGGUUGUACAGUUUGAUUGGAG`, “RBNS enrichment (R)” read 0.526.
For `UUCCUGGAGCCAUUUGGUAUGAGGUAUUAAUUUAGCUUAACUAAAUUACAGGGGACUCAGAGGCCGUGCUCCUGACCGAUCCAGACACUAUUACUGGCUUUUUUUUUUUU`, “RBNS enrichment (R)” read 0.545.
For `AUCCAGGUAAGACCGGAUUGAAGCUUUGAAAUUAGACUAACAAAGCUCCAGACAGCAAGAGCCCAGGUGCACUGCUCACACCCCCACCUGCAUUUUGAAGUCAUAUUAUU`, “RBNS enrichment (R)” read 0.726.
`GCAUAGACACAUAAUUAUGCUUAAGCUUUUAACAGCAUUUUAACCGCUCUAAAAAUUACCAGAGUAAGAAAAAGCUAGGUACUUUAAAGUGAGUUUGAGAAACAAGUUGA`: “RBNS enrichment (R)” 1.08.

Sample 3 — method: RNA Bind-n-Seq; molecule type: RNA; matrix: in vitro; tested at: not given; baseline: input RNA pool; reading: higher = stronger binding
Target: RING finger protein unkempt homolog, zinc fingers 1-6, GST-SBP tag (UNK, Homo sapiens, UniProt Q9C0B0, residues 30-357)
Sequence of UniProt Q9C0B0 (30-357, looked up): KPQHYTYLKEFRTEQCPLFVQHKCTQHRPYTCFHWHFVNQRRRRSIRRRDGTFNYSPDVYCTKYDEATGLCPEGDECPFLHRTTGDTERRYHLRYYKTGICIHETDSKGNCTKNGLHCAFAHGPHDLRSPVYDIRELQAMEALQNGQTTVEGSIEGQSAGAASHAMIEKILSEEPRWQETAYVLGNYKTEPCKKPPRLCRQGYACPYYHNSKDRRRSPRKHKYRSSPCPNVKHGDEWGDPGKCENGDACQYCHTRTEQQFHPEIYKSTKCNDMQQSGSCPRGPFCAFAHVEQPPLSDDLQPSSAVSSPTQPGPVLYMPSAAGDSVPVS
Setting: RNA with constant flanks, human and mouse sites, ends assumed
Shared flanks, not repeated: GGGAGUUCUACAGUCCGACGAUC … CAACAGAGGAUUGAGCAUCA
The bound/input enrichment of `CAUGUCUGCCAGGAUGAACACCAACUUUACAAUGAAUUUUUCACAAAACCAACAUCAAAAUUAGAUGAGCUUUUGGAGAAACUGUGUGUGUCAUUGUAUGAUGUCUUCAGGCCAUUGAUC` is reported as 0.108 ratio.
`CUCACCUUCCUUCGAAUUCGCUCCAAGAAAAAUGAAAUUAUGGUUGCACCAGAUAAAGACUAUUUCCUGAUUGUGAUUCAGAAUCCAACCGAAUAAGCCACUCUCUUGGCUCCCUGUGUC` has a bound/input enrichment of 0.228 ratio.
`UUAUGGGUGUAAGAGGUUUGCAGGGGUUUGUGGGGAGUACGUGCCCACACAUAUGUACCAUAGUCAAUAUCCACGAGCUGGCAGAGCGUCACCGAAACAAGUACCCUGGAUGUACGCCUA` has a bound/input enrichment of 0.277 ratio.
For `ACAAAGAAUCGAGUGGAAAUAAAUGAUUUAGACCCUGAGGUAUUUAAAGAAAUGAUGAGAUUUGUUUACACAGGAAAAGCACCAAAUCUUGAUAAAAUGGCUGACAACUUGUUGGCAGCU`, the bound/input enrichment was 0.623 ratio.
For `UCAACAGACAACAUCAAAUACCAGCCUAAAGGGGGGCAGGUACAAAUUGUUACCAAGAAAAUAGACCUAAGCCAUGUGACAUCCAAAUGUGGCUCUCUGAAGAACAUCCGCCACAGGCCA`, the bound/input enrichment was 0.619 ratio.
`GGCAAGAUGCAUGCUUAUGAGAAGAUCCACCAGUGCUCUGAAUGUAACUUUGCCACUGCCCACAAAAGGGUGCUUAUCCGACACAUGCUGCUGCAUACUGGAGAGAAGCCUCACAAAUGU` gave a bound/input enrichment of 0.108 ratio.
`UUAGUACAGGCUGAACAAAGAAAUAGAGACUUGCAGGCUGAUAACCAAAGACUGAAAUAUGAAGUGGAGGCAUUAAAGGAGAAGCUAGAGCAUCAAUAUGCACAGAGCUAUAAGCAGGUC` has a bound/input enrichment of 0.583 ratio.
For `CAGCAGUUGUAUUCUUUAUUAGCUUGGUAGAUCAUUUUCUCUCGCUCUUUUUUUUAAUACUAGCAACUUUCAUCCUUUGAAACGUGUGCUGAAAAAGAAGAAUCAGCAAAUACUACUGAA`, the bound/input enrichment was 0.86 ratio.

Sample 4 — method: RNAcompete; molecule type: RNA; matrix: in vitro; tested at: 20 nM; setting: 7-mer, probes averaged, single round; baseline: mean of 7-mers; reading: higher = stronger binding
Target: PABPC1L2, full length, GST fusion (mouse, UniProt A0ABA7IW68)
Residues (chain): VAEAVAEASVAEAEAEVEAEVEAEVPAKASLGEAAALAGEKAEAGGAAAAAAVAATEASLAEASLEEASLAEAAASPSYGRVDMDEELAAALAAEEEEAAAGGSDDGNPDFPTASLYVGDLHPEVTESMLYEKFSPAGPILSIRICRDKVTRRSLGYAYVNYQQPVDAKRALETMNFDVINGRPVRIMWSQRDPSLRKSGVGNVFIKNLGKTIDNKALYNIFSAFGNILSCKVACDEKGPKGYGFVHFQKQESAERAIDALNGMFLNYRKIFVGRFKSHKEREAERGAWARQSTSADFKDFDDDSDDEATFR
With `UACGAUA` the 7-mer Z-score was 0.108.
`AGGAUCC` has a 7-mer Z-score of -0.219.
For `UUACAAU`, the 7-mer Z-score was -0.184.
For `CCGCCCA`, the 7-mer Z-score was -0.431.
The 7-mer Z-score of `UUGAUUA` is reported as 0.0315.
With `AAUGCGC` the 7-mer Z-score was 0.0714.
With `GCUAGUC` the 7-mer Z-score was -0.345.
The 7-mer Z-score of `CUGCGAU` is reported as -0.139.
For `CUGGGCG`, the 7-mer Z-score was 0.128.
For `AAUAUAG`, the 7-mer Z-score was 0.267.
`ACGUCGC` gave a 7-mer Z-score of -0.3.
`CCUCUCA` has a 7-mer Z-score of -0.431.
`CGCACUA` has a 7-mer Z-score of -0.157.
`CUACACG` has a 7-mer Z-score of -0.11.
`UUGCUAU` gave a 7-mer Z-score of -0.24.
`CUUCCGG` gave a 7-mer Z-score of -0.349.

For quick reference, copied from above (sample 1):
For `ATCCCGAG`, the E-score was -0.202.
`CGGCGCGA` gave an E-score of -0.0702.
`AACATTTC` gave an E-score of 0.22.
`CCCTCCAA` gave an E-score of -0.239.
For `AGGATCAG`, the E-score was -0.174.
`ATACCCTG` has an E-score of -0.0807.
For `CAAACCGA`, the E-score was -0.113.
